Measurements of several laboratories.
Lines come from different studies, so protocols differ. “And” joins repeats or separate records; there may be more than shown. ± gives the spread as reported.
CYP2D6: Cytochrome P450 2D6 (CYP2D6, Homo sapiens, UniProt P10635)
Chain of UniProt P10635 (whole entry, looked up): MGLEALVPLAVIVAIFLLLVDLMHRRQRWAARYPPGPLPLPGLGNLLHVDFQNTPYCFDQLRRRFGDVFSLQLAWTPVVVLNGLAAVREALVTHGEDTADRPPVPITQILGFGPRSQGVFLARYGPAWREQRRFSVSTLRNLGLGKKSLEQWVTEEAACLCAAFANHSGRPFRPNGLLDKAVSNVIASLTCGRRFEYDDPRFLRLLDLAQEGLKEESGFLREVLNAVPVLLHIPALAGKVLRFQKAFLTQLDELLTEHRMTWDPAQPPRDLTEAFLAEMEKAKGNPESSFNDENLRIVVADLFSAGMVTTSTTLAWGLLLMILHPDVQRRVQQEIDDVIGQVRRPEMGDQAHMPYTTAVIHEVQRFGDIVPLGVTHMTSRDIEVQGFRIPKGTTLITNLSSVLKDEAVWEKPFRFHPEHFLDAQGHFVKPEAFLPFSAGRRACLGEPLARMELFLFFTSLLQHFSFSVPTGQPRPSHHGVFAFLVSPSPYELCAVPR
FAAH: Fatty-acid amide hydrolase 1 (FAAH, Homo sapiens, UniProt O00519)
Chain of UniProt O00519 (whole entry, looked up): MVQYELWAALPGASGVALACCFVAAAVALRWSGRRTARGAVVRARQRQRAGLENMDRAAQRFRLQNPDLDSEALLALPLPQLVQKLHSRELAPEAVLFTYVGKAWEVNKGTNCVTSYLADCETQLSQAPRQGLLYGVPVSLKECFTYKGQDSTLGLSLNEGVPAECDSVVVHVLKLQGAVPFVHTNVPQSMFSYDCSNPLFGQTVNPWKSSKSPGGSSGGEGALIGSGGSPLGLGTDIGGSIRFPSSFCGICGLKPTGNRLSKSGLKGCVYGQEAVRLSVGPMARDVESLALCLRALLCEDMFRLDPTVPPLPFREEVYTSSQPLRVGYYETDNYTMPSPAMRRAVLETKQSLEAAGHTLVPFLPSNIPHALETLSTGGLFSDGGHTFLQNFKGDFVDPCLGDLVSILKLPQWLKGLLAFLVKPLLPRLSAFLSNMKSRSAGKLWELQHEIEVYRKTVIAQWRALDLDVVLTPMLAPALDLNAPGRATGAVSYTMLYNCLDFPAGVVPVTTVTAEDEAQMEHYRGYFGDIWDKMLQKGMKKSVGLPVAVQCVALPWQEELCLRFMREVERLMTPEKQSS
PARP1: Poly [ADP-ribose] polymerase 1 (PARP1, Homo sapiens, UniProt P09874)
Chain of UniProt Q86U42 (whole entry, looked up): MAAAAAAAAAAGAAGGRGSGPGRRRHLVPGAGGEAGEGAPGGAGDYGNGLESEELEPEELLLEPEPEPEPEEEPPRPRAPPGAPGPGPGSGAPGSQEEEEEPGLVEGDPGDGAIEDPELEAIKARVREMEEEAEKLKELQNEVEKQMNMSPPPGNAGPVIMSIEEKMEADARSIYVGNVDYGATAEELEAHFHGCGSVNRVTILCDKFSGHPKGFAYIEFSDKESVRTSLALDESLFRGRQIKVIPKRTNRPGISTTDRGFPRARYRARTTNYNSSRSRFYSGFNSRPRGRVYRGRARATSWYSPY
Chain of UniProt P09874 (whole entry, looked up): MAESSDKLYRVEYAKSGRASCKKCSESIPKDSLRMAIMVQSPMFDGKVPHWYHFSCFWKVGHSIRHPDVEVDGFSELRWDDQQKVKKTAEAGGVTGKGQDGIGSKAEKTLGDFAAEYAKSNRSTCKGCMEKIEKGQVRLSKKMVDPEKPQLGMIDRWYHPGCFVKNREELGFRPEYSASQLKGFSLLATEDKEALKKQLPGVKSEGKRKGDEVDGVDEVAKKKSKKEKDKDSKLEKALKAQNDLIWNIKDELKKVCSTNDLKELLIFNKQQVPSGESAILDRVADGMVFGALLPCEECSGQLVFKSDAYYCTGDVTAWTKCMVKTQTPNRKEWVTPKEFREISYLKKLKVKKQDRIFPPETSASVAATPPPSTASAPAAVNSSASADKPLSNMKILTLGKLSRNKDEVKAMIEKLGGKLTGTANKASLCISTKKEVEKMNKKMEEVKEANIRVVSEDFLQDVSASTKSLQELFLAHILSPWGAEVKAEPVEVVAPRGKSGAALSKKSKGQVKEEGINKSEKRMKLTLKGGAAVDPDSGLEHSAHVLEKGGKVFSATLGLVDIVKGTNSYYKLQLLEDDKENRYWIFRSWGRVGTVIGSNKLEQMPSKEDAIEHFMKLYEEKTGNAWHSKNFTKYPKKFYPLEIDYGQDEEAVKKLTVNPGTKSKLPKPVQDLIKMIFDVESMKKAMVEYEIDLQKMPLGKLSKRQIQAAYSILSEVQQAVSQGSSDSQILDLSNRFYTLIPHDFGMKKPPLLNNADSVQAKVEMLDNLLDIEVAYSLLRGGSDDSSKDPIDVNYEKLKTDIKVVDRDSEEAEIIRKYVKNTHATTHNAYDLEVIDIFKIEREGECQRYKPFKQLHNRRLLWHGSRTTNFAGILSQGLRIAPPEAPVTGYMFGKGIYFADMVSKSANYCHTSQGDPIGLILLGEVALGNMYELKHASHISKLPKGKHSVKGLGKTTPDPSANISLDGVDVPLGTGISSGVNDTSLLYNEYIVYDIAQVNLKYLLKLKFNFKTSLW
Chain of UniProt P32745 (whole entry, looked up): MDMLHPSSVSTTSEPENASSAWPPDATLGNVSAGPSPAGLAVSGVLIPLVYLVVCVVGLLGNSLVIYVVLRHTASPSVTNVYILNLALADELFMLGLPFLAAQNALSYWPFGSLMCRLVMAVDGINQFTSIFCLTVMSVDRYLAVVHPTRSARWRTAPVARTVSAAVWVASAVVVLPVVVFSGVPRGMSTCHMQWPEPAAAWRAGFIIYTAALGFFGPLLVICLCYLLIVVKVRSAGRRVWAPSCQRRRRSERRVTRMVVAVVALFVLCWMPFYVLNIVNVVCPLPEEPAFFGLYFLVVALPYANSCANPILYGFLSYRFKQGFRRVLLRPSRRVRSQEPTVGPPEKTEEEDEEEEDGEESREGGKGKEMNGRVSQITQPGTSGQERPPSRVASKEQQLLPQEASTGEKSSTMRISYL
Chain of UniProt O15379 (whole entry, looked up): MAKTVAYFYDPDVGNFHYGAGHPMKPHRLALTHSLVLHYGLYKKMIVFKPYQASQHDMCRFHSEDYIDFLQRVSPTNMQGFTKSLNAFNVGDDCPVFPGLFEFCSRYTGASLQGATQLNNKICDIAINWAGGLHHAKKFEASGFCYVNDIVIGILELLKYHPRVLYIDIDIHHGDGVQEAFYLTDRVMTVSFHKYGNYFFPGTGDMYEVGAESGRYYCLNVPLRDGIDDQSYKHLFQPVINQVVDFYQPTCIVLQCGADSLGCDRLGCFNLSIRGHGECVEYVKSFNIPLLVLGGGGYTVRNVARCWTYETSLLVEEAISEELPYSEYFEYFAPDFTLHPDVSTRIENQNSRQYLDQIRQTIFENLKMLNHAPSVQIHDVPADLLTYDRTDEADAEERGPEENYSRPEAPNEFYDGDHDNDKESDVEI
Chain of UniProt P07195 (whole entry, looked up): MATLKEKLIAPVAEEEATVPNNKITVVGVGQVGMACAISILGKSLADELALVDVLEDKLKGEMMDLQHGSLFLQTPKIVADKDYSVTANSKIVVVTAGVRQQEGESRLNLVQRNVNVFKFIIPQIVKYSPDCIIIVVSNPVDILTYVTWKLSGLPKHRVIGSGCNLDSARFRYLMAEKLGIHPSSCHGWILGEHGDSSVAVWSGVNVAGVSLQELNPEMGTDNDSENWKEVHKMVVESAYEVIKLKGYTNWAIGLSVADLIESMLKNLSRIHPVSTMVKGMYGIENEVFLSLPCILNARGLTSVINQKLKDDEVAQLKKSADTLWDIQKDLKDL
Chain of UniProt P17948 (whole entry, looked up): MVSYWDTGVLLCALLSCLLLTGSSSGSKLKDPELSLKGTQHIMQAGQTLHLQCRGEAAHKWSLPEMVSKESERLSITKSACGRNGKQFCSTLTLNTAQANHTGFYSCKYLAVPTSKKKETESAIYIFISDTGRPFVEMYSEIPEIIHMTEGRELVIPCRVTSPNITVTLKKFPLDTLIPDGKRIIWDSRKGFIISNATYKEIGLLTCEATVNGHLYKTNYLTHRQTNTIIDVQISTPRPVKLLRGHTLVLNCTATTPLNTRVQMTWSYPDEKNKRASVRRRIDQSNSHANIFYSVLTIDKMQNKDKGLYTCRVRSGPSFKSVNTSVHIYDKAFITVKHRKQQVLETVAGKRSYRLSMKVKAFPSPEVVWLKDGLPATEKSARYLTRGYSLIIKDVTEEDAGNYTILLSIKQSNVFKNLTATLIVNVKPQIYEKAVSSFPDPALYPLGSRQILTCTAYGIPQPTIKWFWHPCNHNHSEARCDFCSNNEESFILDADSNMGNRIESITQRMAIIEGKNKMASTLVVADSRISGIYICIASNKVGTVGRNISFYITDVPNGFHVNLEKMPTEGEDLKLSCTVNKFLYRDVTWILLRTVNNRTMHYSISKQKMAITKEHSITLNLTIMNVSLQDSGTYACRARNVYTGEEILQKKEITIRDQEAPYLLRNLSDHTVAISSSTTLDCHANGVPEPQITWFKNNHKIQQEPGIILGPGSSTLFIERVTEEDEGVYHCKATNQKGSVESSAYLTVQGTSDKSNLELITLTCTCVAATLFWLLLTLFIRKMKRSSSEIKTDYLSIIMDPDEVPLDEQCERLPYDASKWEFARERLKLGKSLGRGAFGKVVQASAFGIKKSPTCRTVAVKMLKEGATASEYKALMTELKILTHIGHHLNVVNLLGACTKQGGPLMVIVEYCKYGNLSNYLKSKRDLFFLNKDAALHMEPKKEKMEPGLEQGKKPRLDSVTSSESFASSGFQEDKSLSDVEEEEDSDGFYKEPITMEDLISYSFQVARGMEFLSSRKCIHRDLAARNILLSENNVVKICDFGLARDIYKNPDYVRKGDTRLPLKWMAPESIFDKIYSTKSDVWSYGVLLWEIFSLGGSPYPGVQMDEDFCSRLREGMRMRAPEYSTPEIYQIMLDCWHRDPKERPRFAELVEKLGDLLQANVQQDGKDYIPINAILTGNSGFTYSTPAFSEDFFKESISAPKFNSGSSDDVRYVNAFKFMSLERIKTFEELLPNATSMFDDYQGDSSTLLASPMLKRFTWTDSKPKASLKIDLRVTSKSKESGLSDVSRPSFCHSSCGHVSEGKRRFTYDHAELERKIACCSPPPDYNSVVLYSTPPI

| SMILES | target | test | test system | setting | IC50 |
| --- | --- | --- | --- | --- | --- |
| Cc1ncc([N+](=O)[O-])n1CC(C)O (stereo not shown) | CYP2D6 | enzyme activity, inhibitor | human liver microsomes | 30 min, added: dextromethorphan | > 500 µM |
| COc1cccc(Cn2cc(CNC(=O)OCc3cn(Cc4ccccc4OC)nn3)nn2)c1 | FAAH | enzyme activity, inhibitor, fluorescence | – | cell membranes | 0.0304 µM |
| COc1cccc2cc(-c3nnc(SCC(=O)Nc4cccc([N+](=O)[O-])c4)n3-c3ccccc3)oc12 | fungal tyrosinase | enzyme activity, inhibitor, dopachrome absorbance | – | pH 6.8, 37 °C, added: L-tyrosine substrate | 0.76 ± 1.71 µM |
| CC(C)NCc1ccc(C[C@@H]2NC(=O)[C@@H](N(C)C(=O)c3ccc4ccccc4c3)NC(=O)[C@H](Cc3ccccc3)NC(=O)[C@H](N)CSSC[C@@H](C(=O)N[C@@H](Cc3ccc4ccccc4c3)C(N)=O)NC(=O)[C@H](Cc3ccccc3)NC2=O)cc1 | SSTR3 (Homo sapiens, UniProt P32745) | ligand displacement, radioligand | – | cell membranes | 0.112 µM |
| O=C(O)c1ccc(O)cc1 | FAAH | enzyme activity, inhibitor, fluorimetric | – | 60 min preincubation, recombinant enzyme, added: OMP substrate 50 µM | > 100 µM |
| CN(C)c1cc2c(Nc3ccc4c(cnn4Cc4ccccc4)c3)ncnc2cn1 | FLT1 (Homo sapiens, UniProt P17948) | – | – | – | > 10 µM |
| O=C(ON1C(=O)C2CN(Cc3ccc(Oc4ccccc4)cc3)CCN2C1=O)N1CCC(c2ccccc2)CC1 (stereo not shown) | Phospholipase ABHD3 (Abhd3, Mus musculus, UniProt Q91ZH7) | inhibitor, competitive gel-based ABPP, refers to: ABHD3 | mouse, transfected HEK293T cell lysate | added: FP-rhodamine probe | 0.13 µM |
| O=C(O)c1cc2c(C(F)(F)F)cc(-c3ccccc3)cc2n1O | LDHB (Homo sapiens, UniProt P07195) | inhibitor, NADH fluorescence | – | pyruvate competition, added: 150 µM NADH, 200 µM pyruvate | > 200 µM |
| CC(C)C(C(=O)O)[C@@H]1CCN[C@H]1C(=O)O (relative stereo) | AMPA receptor, rat | binding | cortical synaptosomes | added: [3H]-AMPA | > 100 µM |
| O=C(CC1Cc2ccccc2C1)N[C@H](CN1CCCC1)[C@H](O)c1ccc2c(c1)OCCO2 | UGCG (Canis lupus familiaris, UniProt A0A8I3MXG6) | refers to: glucosylceramide | MDCK | 24 h | 0.0153 µM |
| Nc1ncnc2c1ncn2[C@@H]1O[C@H](COP(=O)(O)O)[C@@H](O)[C@H]1O | nucleoside diphosphate kinase A/B human | autophosphorylation, inhibitor | native membranes | 4 °C, biphasic curve, unreliable | ~200 µM |
| NC(N)=S | Urea transporter 2 (Rattus norvegicus, UniProt Q62668) | urea transport, inhibitor | MDCK expressing rat UT-A1 | 20 min | > 25000 µM |
| Cn1ccnc1C(=O)C1CC1c1ccc(CC(=O)Nc2ccc(Br)cc2)cc1 (stereo not shown) | HDAC3 (Homo sapiens, UniProt O15379) | enzyme activity, inhibitor | – | – | > 200 µM |
| Cn1c(=O)c(=O)n(C)c2cc(S(=O)(=O)NNC(=O)NCc3ccccc3)ccc21 | DPP4 (Homo sapiens, UniProt P27487) | enzyme activity, inhibitor, fluorescence | – | – | 4.8e-05 µM |
| NC(=O)c1cccc2c1OCCN2 | PARP1 | – | – | – | 11 ± 1.9 µM |
| O=S(=O)(O)c1cc(N=C=S)ccc1C=Cc1ccc(N=C=S)cc1S(=O)(=O)O | PABPN1 (Homo sapiens, UniProt Q86U42) | inhibitor, AlphaScreen counterscreen | – | – | 11.3 µM and ~11 µM |
| Cn1ncc(Nc2ccc3c(c2)CCN(CCCCCNC(=O)COc2cccc4c2C(=O)N(C2CCC(=O)NC2=O)C4=O)C3)c(Cl)c1=O (stereo not shown) | Nucleosome-remodeling factor subunit BPTF, bromodomain (BPTF, Homo sapiens, UniProt Q12830) | binding, AlphaScreen | – | bromodomain, added: H4 acetylated peptide, 100 nM | 0.024 ± 0.009 µM |
| O=C(CSc1nc2ccccc2c(=O)n1-c1ccccc1)Nc1ccc(S(=O)(=O)NC(=O)Nc2ccccc2)cc1 | PARP1 | enzyme activity, inhibitor, absorbance | – | – | 0.13 µM |
| CCCN1CCC(c2cccc(S(C)(=O)=O)c2)CC1 | CYP2D6 | enzyme activity, inhibitor | human, liver microsomes | pH 7.4 | 35 µM |

Some of these lines once more:
| SMILES | target | test | test system | setting | IC50 |
| --- | --- | --- | --- | --- | --- |
| Cc1ncc([N+](=O)[O-])n1CC(C)O (stereo not shown) | CYP2D6 | enzyme activity, inhibitor | human liver microsomes | 30 min, added: dextromethorphan | > 500 µM |
| COc1cccc(Cn2cc(CNC(=O)OCc3cn(Cc4ccccc4OC)nn3)nn2)c1 | FAAH | enzyme activity, inhibitor, fluorescence | – | cell membranes | 0.0304 µM |
